Published values pooled from the literature.
Protocols differ between the studies behind these lines. Numbers after ± are the reported error.
UGT1A4: UDP-glucuronosyltransferase 1A4 (UGT1A4, Homo sapiens, UniProt P22310)
UniProt P22310, sequence (whole entry, looked up): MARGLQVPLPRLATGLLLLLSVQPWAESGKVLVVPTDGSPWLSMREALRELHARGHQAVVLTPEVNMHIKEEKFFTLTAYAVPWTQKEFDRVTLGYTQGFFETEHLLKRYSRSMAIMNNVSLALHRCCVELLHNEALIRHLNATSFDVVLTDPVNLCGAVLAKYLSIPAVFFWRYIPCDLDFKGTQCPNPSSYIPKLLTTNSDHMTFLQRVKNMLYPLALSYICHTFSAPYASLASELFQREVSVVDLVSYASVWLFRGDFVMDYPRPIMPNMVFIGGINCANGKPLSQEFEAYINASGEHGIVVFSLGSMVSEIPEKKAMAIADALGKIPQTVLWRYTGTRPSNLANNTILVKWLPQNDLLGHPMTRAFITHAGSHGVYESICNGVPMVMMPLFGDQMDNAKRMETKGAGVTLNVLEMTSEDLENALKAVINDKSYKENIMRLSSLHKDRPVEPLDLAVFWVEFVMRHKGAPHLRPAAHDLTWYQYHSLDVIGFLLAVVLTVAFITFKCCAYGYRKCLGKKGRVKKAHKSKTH
ALK: ALK tyrosine kinase receptor (ALK, Homo sapiens, UniProt Q9UM73)
UniProt Q9UM73, sequence (whole entry, looked up): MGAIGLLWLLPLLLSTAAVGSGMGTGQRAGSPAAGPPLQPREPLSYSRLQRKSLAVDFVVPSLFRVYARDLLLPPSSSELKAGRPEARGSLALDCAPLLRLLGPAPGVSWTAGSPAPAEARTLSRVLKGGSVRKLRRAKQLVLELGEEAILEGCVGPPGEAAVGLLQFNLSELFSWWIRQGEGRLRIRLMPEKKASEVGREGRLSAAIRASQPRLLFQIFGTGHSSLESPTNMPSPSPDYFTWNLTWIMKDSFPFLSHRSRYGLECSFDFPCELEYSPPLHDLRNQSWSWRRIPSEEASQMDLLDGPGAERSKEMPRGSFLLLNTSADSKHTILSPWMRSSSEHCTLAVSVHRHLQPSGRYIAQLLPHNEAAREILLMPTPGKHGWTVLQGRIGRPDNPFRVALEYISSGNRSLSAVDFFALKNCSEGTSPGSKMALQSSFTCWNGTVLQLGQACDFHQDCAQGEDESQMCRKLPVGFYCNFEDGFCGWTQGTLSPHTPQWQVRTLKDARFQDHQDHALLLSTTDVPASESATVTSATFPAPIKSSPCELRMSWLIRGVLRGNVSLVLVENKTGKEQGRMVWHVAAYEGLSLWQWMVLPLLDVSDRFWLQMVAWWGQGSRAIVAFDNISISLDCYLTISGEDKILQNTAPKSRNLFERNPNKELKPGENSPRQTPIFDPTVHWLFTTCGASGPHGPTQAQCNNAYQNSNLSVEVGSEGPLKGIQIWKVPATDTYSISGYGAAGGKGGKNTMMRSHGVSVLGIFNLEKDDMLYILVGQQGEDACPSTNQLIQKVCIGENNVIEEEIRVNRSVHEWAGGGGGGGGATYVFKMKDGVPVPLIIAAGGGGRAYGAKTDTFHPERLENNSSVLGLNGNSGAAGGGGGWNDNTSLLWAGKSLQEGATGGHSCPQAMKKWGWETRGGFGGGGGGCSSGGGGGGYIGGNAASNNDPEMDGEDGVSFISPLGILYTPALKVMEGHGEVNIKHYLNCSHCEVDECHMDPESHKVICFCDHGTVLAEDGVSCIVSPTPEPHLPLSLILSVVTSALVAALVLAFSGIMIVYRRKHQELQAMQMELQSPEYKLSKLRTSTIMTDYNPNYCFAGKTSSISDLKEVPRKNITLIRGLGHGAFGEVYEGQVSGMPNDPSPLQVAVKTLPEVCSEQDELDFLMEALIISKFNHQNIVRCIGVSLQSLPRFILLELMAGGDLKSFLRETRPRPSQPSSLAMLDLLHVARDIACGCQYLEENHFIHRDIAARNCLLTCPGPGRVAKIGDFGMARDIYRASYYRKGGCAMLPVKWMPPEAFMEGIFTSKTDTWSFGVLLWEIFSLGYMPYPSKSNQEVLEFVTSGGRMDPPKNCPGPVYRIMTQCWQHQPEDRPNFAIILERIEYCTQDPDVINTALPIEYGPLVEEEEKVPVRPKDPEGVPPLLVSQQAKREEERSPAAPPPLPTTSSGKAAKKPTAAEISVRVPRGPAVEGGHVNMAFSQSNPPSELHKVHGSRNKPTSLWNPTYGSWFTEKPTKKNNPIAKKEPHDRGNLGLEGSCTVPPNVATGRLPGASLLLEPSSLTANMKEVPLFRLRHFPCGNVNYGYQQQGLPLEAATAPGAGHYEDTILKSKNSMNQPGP
DDR1: Epithelial discoidin domain-containing receptor 1 (DDR1, Homo sapiens, UniProt Q08345)
UniProt Q08345, sequence (whole entry, looked up): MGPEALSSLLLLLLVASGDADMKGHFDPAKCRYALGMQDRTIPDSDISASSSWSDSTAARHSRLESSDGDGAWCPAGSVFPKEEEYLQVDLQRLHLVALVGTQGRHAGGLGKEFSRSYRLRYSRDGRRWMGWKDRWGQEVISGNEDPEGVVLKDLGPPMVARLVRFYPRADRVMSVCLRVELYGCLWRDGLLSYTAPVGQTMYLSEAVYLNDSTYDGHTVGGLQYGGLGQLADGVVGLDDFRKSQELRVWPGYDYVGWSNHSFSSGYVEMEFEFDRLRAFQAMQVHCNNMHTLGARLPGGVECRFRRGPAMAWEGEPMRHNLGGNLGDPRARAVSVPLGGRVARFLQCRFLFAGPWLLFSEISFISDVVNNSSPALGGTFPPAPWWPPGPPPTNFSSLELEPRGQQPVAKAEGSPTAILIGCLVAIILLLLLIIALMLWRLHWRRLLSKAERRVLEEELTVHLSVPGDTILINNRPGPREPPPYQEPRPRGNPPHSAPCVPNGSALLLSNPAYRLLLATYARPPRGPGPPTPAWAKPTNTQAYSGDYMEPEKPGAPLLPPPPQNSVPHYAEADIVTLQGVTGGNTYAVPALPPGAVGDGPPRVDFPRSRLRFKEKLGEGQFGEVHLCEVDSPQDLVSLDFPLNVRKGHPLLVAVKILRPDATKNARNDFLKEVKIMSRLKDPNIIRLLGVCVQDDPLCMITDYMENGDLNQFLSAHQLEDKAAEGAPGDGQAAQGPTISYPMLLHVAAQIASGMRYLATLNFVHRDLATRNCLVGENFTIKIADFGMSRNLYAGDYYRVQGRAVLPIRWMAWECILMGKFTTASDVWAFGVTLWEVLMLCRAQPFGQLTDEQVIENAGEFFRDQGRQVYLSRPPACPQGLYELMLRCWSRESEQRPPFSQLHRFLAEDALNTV
UniProt P35626, sequence (whole entry, looked up): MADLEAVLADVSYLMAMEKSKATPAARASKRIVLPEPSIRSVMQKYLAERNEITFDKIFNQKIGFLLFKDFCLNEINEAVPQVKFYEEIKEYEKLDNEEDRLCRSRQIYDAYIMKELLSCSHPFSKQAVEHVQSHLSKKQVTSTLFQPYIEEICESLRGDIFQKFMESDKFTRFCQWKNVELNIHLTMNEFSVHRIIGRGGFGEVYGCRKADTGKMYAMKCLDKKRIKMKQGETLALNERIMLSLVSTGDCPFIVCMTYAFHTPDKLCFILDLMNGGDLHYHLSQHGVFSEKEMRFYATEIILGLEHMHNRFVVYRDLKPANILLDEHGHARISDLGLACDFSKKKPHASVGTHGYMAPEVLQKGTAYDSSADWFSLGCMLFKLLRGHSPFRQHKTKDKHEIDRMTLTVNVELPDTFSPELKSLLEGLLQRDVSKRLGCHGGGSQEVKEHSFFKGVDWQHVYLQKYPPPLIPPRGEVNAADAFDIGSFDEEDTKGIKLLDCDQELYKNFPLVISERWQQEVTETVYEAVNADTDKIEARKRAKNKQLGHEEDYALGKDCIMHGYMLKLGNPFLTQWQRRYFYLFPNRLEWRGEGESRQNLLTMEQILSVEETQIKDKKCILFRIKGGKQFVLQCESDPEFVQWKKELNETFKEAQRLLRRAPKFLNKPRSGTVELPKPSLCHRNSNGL
UniProt P51575, sequence (whole entry, unmodified, looked up): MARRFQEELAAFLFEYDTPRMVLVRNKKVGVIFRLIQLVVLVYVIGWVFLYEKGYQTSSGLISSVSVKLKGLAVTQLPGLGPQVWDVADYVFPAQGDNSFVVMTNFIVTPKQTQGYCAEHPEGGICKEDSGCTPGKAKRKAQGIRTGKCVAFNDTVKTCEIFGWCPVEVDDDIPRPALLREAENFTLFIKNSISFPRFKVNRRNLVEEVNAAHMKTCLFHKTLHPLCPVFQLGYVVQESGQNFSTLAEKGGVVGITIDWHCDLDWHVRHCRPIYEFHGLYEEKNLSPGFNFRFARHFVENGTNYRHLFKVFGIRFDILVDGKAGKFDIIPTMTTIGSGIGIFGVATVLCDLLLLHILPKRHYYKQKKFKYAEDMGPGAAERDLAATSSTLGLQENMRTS
UniProt Q9UIK4, sequence (whole entry, looked up): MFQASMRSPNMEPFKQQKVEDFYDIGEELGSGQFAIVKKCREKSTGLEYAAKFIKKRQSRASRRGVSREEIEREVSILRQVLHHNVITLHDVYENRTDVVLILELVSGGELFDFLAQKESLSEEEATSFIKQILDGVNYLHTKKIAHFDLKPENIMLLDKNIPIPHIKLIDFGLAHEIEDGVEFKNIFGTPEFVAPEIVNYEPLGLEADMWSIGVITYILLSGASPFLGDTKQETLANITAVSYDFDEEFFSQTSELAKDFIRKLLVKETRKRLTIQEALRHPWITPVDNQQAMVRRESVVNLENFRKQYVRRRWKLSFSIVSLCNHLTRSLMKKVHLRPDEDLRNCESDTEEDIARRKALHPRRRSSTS
UniProt Q8TD08, sequence (whole entry, looked up): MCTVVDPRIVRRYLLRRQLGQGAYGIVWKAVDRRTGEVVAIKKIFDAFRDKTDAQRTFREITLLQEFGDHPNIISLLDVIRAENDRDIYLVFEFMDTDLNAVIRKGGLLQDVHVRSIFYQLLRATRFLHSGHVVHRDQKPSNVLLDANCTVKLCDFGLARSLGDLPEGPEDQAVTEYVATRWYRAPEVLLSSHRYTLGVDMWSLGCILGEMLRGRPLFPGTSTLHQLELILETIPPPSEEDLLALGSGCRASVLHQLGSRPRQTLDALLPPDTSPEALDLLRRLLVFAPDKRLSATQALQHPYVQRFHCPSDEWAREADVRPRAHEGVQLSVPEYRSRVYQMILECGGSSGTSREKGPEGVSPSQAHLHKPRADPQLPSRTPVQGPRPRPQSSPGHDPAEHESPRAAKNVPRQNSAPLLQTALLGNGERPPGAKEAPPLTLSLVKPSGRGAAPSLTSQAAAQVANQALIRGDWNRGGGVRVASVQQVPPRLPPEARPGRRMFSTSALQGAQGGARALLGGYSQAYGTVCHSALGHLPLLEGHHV

SMILES = CC(C)C(=O)Nc1n[nH]c2cc(-c3cccc(NS(=O)(=O)C4CC4)c3)ccc12; tested on = PIP5K1C (Homo sapiens, UniProt O60331); test = ADP-Glo; setting = 123 nM; scale = reference: DMSO; endpoint = remaining activity; value = 99.6%
SMILES = COc1c(O)cc2c(c1O)C(=O)c1c(cc(C)c(O)c1OC)C2=O; tested on = HepaRG co-cultured with HK-2; test = MTT; setting = 33.33 µM, 48 h; scale = reference: untreated control; endpoint = cell viability; value = 103 ± 13.4%
SMILES = CNCC(=O)O; tested on = SLC6A9 (Homo sapiens, UniProt P48067, G373S); test = glycine uptake, inhibitor; setting = 2000 µM, together with: [3H]glycine; scale = reference: no inhibitor; endpoint = remaining activity; value = 105%
SMILES = O=C1NC(=O)/C(=C/c2ccc(-c3ccc(F)cc3O)o2)S1; tested on = MAPK15 (Homo sapiens, UniProt Q8TD08); test = enzyme activity; setting = 10 µM; endpoint = remaining activity; value = 10%
SMILES = Cc1cc(NC(=O)c2cccc(NC(=O)/C=C/CN(C)C)c2)ccc1Nc1nccc(-c2cccnc2)n1; tested on = MAPK8 (Homo sapiens, UniProt P45983); test = enzyme activity, inhibitor; setting = 0.0007527 µM, 18 h, unit not given, together with: GSH 10 mM pre-incubation; scale = reference: vehicle; endpoint = remaining activity; value = 1.02
SMILES = C=C1C(=O)O[C@@H]2C[C@@]3(C)CCCC(=C)[C@@H]3C[C@H]12; tested on = COS-7; test = WST-8; setting = 10 µM, 24 h, 0.1% DMSO, unit not given; scale = reference: vehicle control; endpoint = metabolic activity; value = 0.91 ± 0.04
SMILES = Nc1ncnc2c1ncn2[C@@H]1O[C@H](COP(=O)(O)CP(=O)(O)OP(=O)(O)O)[C@@H](O)[C@H]1O; tested on = P2X purinoceptor 1 (P2RX1, Homo sapiens, UniProt P51575, R139A); test = calcium influx; setting = 3.16 nM; scale = reference: ionomycin response; endpoint = calcium influx; value = 0%
SMILES = O=c1cc(-c2ccc(O)c(-c3c(O)cc(O)c4c(=O)cc(-c5ccc(O)cc5)oc34)c2)oc2cc(O)cc(O)c12; tested on = UGT1A4; test = glucuronidation, inhibitor; system = human liver microsomes; setting = 1 µM, together with: probe substrate 50 µM; scale = reference: no inhibitor; endpoint = remaining activity; value = ~80%
SMILES = Cn1c(=O)n(-c2ccc(C(C)(C)C#N)cc2)c2c3cc(-c4cnc5ccccc5c4)ccc3ncc21; tested on = VEGFR; test = enzyme activity; setting = 10 µM; endpoint = remaining activity; value = 80%
SMILES = C=CC(=O)N1CCC[C@@H](n2nc(-c3ccc(Oc4ccccc4)cc3)c3c(N)ncnc32)C1; tested on = MAPK3 (Homo sapiens, UniProt P27361); setting = 1 µM; endpoint = remaining activity; value = 13.3%
SMILES = COc1cc2c(c(O)c1OC)C(=O)c1c(cc(C)c(O)c1OC)C2=O; tested on = HepaRG co-cultured with HK-2; test = MTT; setting = 133.33 µM, 48 h; scale = reference: untreated control; endpoint = cell viability; value = 52.1 ± 2.79%
SMILES = CC(C)n1c(/C=C/C(O)CC(O)CC(=O)O)c(-c2ccc(F)cc2)c2ccccc21 (centres unmarked); tested on = COS-7; setting = 6 µM, 24 h, 0.1% DMSO, unit not given; scale = reference: vehicle control; endpoint = necrotic cells; value = 0.69 ± 0.11
SMILES = Cc1cc(Nc2cc(N3CCN(C)CC3)nc(Sc3ccc(NC(=O)C4CC4)cc3)n2)[nH]n1; tested on = DAPK2 (Homo sapiens, UniProt Q9UIK4); test = kinase activity, KinaseProfiler; setting = 0.03 µM, species human; scale = reference: control; endpoint = remaining activity; value = 99%
SMILES = C=CC[C@@H]1c2ccc(OC)c(OC)c2CN2CCc3cc4c(cc3[C@H]12)OCO4; tested on = P2X purinoceptor 7 (Ailuropoda melanoleuca, UniProt G1M6C4); test = ATP-evoked current, inhibitor, whole-cell patch clamp; system = HEK293 transfected; setting = 0.1 µM, wild type; endpoint = remaining activity; value = 99.7%
SMILES = COc1cc(Nc2ncc3c(n2)-c2ccc(Cl)cc2C(c2c(F)cccc2OC)=NC3)ccc1C(=O)O; tested on = NEK1; test = kinase activity; setting = 1 µM; endpoint = remaining activity; value = 97%
SMILES = Cn1cc(-c2ccc(-c3cncc(Cl)c3N3CCC4(CCNC4=O)CC3)cc2)cn1; tested on = COLO 205; test = microarray, item: CD55; setting = concentration not given, 2 h, gene set DAF; scale = reference: untreated cells; endpoint = fold change in expression; value = 2.23
SMILES = C[C@@H]1CC[C@@]2(OC1)O[C@H]1C[C@H]3[C@@H]4CC[C@H]5C[C@@H](O)CC[C@]5(C)[C@H]4CC(=O)[C@]3(C)[C@H]1[C@@H]2C; tested on = UGT1A4; test = glucuronidation, inhibitor; system = human liver microsomes; setting = 100 µM, together with: probe substrate 0.5 µM; scale = reference: no inhibitor; endpoint = remaining activity; value = ~8%
SMILES = CN(C)CC#Cc1ccc2[nH]c3c(c2c1)-c1nc(N)ncc1CCC3; tested on = TSSK1B (Homo sapiens, UniProt Q9BXA7); test = kinase activity, inhibitor, radiometric; setting = 1 µM, together with: ATP at Km; endpoint = remaining activity; value = 82%
SMILES = COc1cc(F)ccc1-c1ncnc(Nc2cccc(C[S@](C)(=N)=O)c2)n1; tested on = PIM2 (Homo sapiens, UniProt Q9P1W9); test = kinase activity; setting = 10 µM, together with: 10 µM ATP; endpoint = remaining activity; value = 88%
SMILES = COc1cc(N2CCN(C)CC2)ccc1Nc1nc(N)n(C(=O)NCc2c(Cl)cccc2Cl)n1; tested on = ALK; test = enzyme activity; setting = 10 µM; scale = reference: control; endpoint = remaining activity; value = 1.8%
SMILES = c1cnc2ccc(Nc3nc(NC4CC4)c4nc[nH]c4n3)cc2c1; tested on = DDR1; test = kinase activity, inhibitor, SelectScreen kinase profiling; setting = 1 µM; scale = reference: control; endpoint = remaining activity; value = 90%
SMILES = COc1ccc(F)cc1C(=O)NCc1ccc(-c2nn([C@@H](C)C(F)(F)F)c(N)c2C(N)=O)cc1; tested on = DDR1; test = kinase activity, inhibitor, HotSpot radiometric; setting = 100 nM, together with: ATP 10 µM; endpoint = remaining activity; value = 75 ± 0.4%
SMILES = COc1cc(-c2cncc3c2CN(C)Cc2cc(N4CCNCC4)ccc2-3)cc(OC)c1OC; tested on = GRK3 (Homo sapiens, UniProt P35626); test = kinase activity; setting = 1 µM, human enzyme, together with: ATP 10 µM; scale = reference: DMSO control; endpoint = remaining activity; value = 95%
SMILES = CC[C@@H]1[C@H](F)C(=O)N[C@@H]1COc1nccc2cc(C(N)=O)c(OC)cc12; tested on = MARK2 (Homo sapiens, UniProt Q7KZI7); test = ATP-site probe binding, ActivX profiling; system = THP-1 cell lysate; setting = 0.01 mM, Lys1 site; endpoint = inhibition; value = -8%
SMILES = CC(C)OCCn1c(=S)[nH]c(=O)c2[nH]ccc21; tested on = Myeloperoxidase (MPO, Homo sapiens, UniProt P05164); test = chlorination activity; setting = 0.078 µM, 0.1 h, together with: iodide, TMB; endpoint = remaining activity; value = 103%
SMILES = COc1cc(N2CCN(C)CC2)ccc1Nc1nc(N)n(C(=O)NCc2ccccc2S(=O)(=O)C(C)C)n1; tested on = ALK; test = enzyme activity; setting = 10 µM; scale = reference: control; endpoint = remaining activity; value = 5.3%
SMILES = CNc1ncc2c(/C=C/C(=O)N3CCC(OC)CC3)nn(Cc3cccc(C(F)(F)F)c3)c2n1; tested on = EPHA6 (Homo sapiens, UniProt Q9UF33); test = kinase activity, inhibitor; setting = 1 µM; scale = reference: untreated control; endpoint = remaining activity; value = 92%
SMILES = NC/C(=C\F)COc1cccc(Cn2c(=S)[nH]c(=O)c3[nH]cnc32)c1; tested on = Peroxidasin homolog (PXDN, Homo sapiens, UniProt Q92626); test = Amplex UltraRed; setting = 0.3125 µM, mean of replicates; scale = reference: control; endpoint = remaining activity; value = 99.8%
SMILES = O=C(NC1CCC1)c1ccc2nc(-c3cccc(NS(=O)(=O)NCCN4CCCCC4)c3)cn2c1; tested on = MAPKAPK2 (Homo sapiens, UniProt P49137); test = enzyme activity; setting = 10 µM; endpoint = remaining activity; value = 98%
SMILES = COc1cc(N2CCN(C)CC2)ccc1Nc1nc(N)n(C(=S)NCc2c(Cl)cccc2Cl)n1; tested on = CILK1 (Homo sapiens, UniProt Q9UPZ9); test = enzyme activity; setting = 10 µM; scale = reference: control; endpoint = remaining activity; value = 23%
SMILES = O=C(O)c1ccc(Nc2ncc3c(n2)-c2ccc(Cl)cc2C(c2c(F)cccc2F)=NC3)cc1; tested on = PTK5(h); test = kinase activity; setting = 1 µM; endpoint = remaining activity; value = 90%
SMILES = C=CC(=O)N1CCC([C@@H]2CCNc3c(C(N)=O)c(-c4ccc(Oc5ccccc5)cc4)nn32)CC1; tested on = DDR1; test = kinase activity, inhibitor, HotSpot radiometric; setting = 100 nM, together with: ATP 10 µM; endpoint = remaining activity; value = 108 ± 0.8%

For quick reference, copied from above:
SMILES = CN(C)CC#Cc1ccc2[nH]c3c(c2c1)-c1nc(N)ncc1CCC3; tested on = TSSK1B (Homo sapiens, UniProt Q9BXA7); test = kinase activity, inhibitor, radiometric; setting = 1 µM, together with: ATP at Km; endpoint = remaining activity; value = 82%
SMILES = CC[C@@H]1[C@H](F)C(=O)N[C@@H]1COc1nccc2cc(C(N)=O)c(OC)cc12; tested on = MARK2 (Homo sapiens, UniProt Q7KZI7); test = ATP-site probe binding, ActivX profiling; system = THP-1 cell lysate; setting = 0.01 mM, Lys1 site; endpoint = inhibition; value = -8%
SMILES = NC/C(=C\F)COc1cccc(Cn2c(=S)[nH]c(=O)c3[nH]cnc32)c1; tested on = Peroxidasin homolog (PXDN, Homo sapiens, UniProt Q92626); test = Amplex UltraRed; setting = 0.3125 µM, mean of replicates; scale = reference: control; endpoint = remaining activity; value = 99.8%
SMILES = CC(C)n1c(/C=C/C(O)CC(O)CC(=O)O)c(-c2ccc(F)cc2)c2ccccc21 (centres unmarked); tested on = COS-7; setting = 6 µM, 24 h, 0.1% DMSO, unit not given; scale = reference: vehicle control; endpoint = necrotic cells; value = 0.69 ± 0.11
SMILES = CNCC(=O)O; tested on = SLC6A9 (Homo sapiens, UniProt P48067, G373S); test = glycine uptake, inhibitor; setting = 2000 µM, together with: [3H]glycine; scale = reference: no inhibitor; endpoint = remaining activity; value = 105%
